Measured values pooled from the literature.
A part holds a random share of what one study measured.
UniProt Q9HCP0, sequence (whole entry, looked up): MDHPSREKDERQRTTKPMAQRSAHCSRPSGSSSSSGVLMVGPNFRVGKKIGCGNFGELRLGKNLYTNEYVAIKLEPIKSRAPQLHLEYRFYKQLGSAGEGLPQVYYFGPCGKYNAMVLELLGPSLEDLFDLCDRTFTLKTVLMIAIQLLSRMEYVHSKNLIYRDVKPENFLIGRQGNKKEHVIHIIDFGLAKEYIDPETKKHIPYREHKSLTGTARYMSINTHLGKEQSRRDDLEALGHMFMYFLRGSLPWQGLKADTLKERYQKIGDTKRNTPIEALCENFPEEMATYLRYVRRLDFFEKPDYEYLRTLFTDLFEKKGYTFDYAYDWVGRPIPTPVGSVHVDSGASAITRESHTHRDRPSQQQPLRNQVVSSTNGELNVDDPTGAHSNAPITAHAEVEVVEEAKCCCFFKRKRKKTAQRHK
UniProt Q92918, sequence (whole entry, looked up): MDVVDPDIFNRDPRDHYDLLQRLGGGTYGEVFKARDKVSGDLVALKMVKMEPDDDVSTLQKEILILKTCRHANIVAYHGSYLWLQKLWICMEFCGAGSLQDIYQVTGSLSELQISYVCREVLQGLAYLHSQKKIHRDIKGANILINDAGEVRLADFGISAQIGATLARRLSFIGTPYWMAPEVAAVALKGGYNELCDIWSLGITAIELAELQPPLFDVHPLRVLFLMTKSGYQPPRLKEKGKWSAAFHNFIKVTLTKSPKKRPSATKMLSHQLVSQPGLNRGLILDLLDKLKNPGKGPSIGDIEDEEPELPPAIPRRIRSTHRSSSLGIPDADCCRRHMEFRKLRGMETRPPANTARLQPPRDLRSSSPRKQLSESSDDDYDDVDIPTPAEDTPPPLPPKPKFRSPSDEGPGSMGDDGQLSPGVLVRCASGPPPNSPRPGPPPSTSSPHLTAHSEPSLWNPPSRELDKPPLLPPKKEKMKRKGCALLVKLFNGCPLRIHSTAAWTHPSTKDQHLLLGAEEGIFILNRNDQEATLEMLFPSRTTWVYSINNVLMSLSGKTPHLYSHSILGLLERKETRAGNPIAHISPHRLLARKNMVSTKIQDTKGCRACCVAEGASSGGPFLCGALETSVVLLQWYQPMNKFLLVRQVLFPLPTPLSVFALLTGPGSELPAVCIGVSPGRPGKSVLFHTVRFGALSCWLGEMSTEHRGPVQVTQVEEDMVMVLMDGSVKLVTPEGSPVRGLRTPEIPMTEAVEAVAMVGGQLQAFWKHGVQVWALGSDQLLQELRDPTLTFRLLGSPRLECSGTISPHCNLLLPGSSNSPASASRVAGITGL
UniProt Q13554, sequence (whole entry, looked up): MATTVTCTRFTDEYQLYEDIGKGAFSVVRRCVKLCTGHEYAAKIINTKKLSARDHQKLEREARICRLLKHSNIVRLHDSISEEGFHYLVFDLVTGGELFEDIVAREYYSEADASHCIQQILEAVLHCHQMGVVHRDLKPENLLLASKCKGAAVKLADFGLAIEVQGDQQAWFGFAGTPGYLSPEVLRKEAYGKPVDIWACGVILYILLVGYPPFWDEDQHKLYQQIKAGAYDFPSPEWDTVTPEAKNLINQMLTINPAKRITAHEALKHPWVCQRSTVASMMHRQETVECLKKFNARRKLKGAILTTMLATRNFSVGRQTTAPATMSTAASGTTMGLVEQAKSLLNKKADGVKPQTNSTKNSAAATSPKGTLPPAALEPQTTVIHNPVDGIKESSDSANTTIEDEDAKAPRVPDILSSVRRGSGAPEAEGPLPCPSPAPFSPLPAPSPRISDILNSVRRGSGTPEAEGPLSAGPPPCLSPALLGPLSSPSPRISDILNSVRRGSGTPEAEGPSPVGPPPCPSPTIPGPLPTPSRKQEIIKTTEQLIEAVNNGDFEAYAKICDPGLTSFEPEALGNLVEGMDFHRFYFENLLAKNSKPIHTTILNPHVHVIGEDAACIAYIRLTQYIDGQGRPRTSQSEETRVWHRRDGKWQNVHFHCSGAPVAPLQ
UniProt Q6XUX3, sequence (whole entry, looked up): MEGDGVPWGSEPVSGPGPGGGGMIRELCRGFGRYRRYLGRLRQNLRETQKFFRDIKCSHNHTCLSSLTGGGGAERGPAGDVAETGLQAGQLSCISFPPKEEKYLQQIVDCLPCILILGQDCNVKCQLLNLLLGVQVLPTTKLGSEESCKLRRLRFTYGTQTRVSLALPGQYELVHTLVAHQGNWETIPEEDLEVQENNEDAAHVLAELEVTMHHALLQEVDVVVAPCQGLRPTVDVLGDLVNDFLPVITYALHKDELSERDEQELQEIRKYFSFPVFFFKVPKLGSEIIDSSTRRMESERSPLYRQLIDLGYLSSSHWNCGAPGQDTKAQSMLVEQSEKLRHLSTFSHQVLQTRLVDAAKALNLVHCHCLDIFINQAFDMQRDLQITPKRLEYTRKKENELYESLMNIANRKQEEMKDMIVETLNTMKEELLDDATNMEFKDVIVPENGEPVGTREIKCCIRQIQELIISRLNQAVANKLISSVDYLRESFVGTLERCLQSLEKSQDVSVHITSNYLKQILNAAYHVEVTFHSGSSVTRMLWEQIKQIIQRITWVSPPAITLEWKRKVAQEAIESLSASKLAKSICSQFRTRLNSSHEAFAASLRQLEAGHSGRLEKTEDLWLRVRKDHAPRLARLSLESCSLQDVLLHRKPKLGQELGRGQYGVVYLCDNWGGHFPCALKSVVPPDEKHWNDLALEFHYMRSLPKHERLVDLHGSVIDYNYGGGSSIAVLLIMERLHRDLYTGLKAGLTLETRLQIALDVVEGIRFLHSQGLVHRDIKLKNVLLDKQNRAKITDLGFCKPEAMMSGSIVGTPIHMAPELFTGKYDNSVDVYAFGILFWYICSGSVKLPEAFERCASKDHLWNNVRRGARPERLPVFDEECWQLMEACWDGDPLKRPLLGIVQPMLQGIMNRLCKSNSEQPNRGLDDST
UniProt P11802, sequence (whole entry, looked up): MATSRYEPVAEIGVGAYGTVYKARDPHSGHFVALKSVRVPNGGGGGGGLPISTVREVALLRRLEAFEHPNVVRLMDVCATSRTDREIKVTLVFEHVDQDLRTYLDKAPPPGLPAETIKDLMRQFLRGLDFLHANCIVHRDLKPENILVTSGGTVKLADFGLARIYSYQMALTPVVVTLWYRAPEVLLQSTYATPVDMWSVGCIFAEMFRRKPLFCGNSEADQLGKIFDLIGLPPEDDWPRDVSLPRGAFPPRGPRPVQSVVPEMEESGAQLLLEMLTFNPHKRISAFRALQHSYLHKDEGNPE
UniProt O43683, sequence (whole entry, looked up): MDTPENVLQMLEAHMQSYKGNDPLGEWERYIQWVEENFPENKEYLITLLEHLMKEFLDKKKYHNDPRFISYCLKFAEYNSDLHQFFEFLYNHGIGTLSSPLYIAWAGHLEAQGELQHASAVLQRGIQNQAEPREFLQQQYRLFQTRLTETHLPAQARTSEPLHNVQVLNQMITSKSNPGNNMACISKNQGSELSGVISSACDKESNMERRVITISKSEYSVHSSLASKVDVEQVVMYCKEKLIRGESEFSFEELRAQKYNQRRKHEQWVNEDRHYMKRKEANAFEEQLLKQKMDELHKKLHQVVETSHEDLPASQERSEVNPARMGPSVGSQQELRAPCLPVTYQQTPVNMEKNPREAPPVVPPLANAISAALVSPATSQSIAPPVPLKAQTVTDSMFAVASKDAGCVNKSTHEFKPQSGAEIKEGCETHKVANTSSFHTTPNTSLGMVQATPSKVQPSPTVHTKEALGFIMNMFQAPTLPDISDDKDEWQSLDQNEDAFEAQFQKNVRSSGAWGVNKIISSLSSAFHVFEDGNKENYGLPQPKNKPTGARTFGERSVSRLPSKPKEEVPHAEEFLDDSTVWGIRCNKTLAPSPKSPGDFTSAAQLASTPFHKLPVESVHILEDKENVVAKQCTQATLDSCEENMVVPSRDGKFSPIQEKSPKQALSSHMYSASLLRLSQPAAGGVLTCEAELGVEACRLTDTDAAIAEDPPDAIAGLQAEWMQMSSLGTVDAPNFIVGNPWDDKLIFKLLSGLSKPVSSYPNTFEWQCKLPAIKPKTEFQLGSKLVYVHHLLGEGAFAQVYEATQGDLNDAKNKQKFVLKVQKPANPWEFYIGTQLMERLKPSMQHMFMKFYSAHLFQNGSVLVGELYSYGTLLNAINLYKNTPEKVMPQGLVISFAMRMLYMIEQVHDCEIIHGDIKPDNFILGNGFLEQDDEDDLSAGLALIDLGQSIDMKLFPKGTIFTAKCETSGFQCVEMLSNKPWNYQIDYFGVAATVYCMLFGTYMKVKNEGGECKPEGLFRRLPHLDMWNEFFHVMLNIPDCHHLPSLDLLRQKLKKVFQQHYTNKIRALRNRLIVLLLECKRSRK
UniProt Q86Y07, sequence (whole entry, looked up): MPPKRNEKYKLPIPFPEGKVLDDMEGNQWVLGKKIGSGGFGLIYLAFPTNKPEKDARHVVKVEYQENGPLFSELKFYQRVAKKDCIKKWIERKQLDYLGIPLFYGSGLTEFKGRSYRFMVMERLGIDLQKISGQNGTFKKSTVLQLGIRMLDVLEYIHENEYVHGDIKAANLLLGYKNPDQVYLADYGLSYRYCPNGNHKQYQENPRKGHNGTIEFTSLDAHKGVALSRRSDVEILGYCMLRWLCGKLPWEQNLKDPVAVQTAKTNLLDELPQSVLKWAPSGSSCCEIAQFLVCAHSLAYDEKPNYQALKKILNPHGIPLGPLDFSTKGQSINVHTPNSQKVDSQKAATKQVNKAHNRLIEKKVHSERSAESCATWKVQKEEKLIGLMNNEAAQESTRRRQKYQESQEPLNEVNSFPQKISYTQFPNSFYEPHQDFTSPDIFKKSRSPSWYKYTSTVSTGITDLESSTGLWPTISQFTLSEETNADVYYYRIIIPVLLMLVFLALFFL

Study 1
Target: Max dimerization protein 1, bHLH-zipper, MAX partner unstated (MXD1, Homo sapiens, UniProt Q05195, residues 56-136)
Technique: protein-binding microarray
Molecule type: double-stranded DNA, one strand shown
Matrix: in vitro
Concentration: not given
Setting: k-mer, scored over probes, only values ≥0.25
Reading: higher = stronger binding
Measurement: E-score
Construct (chain): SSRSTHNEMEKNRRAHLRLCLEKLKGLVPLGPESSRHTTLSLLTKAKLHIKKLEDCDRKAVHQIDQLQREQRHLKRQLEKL
CCCGCCAC: 0.343
AAGCATGT: 0.41
GCGTGAGC: 0.261
AGGACATG: 0.272
ATGCGCTG: 0.291
ACACACGC: 0.408
TCACACGA: 0.267
CAACATGG: 0.342

Study 2
SMILES: CCC(=N\O)/C(C)=C/c1ccc(F)cc1
Technique: competition with immobilised ligand
Concentration: 1 µM
Measurement: remaining binding
STK17B (Homo sapiens, UniProt O94768); cell-free assay: 74%
PTK6 (Homo sapiens, UniProt Q13882); cell-free assay: 100%
CSNK1G1 (Homo sapiens, UniProt Q9HCP0); cell-free assay: 99%
BUB1 (Homo sapiens, UniProt O43683); cell-free assay: 88%
NEK7 (Homo sapiens, UniProt Q8TDX7); cell-free assay: 85%
CDK15 (Homo sapiens, UniProt Q96Q40); cell-free assay: 80%
MAP4K1 (Homo sapiens, UniProt Q92918); cell-free assay: 92%
BMPR1A (Homo sapiens, UniProt P36894); binding: 86%
CDK4 (Homo sapiens, UniProt P11802); cell-free assay: 100%
DSTYK (Homo sapiens, UniProt Q6XUX3); cell-free assay: 66%
FER (Homo sapiens, UniProt P16591); cell-free assay: 74%
PRKX (Homo sapiens, UniProt P51817); cell-free assay: 96%
CAMK2B (Homo sapiens, UniProt Q13554); cell-free assay: 97%
ALK (Homo sapiens, UniProt Q9UM73, C1156Y); cell-free assay: 77%
CDK11A (Homo sapiens, UniProt Q9UQ88); binding: 94%
STK39 (Homo sapiens, UniProt Q9UEW8); cell-free assay: 94%
RET (Homo sapiens, UniProt P07949, V804M); cell-free assay: 100%
EGFR (Homo sapiens, UniProt P00533, L858R/T790M); cell-free assay: 100%
STK24 (Homo sapiens, UniProt Q9Y6E0); cell-free assay: 100%
PTK2 (Homo sapiens, UniProt Q05397); cell-free assay: 82%
FLT4 (Homo sapiens, UniProt P35916); cell-free assay: 100%
PLK3 (Homo sapiens, UniProt Q9H4B4); cell-free assay: 86%
FLT3 (Homo sapiens, UniProt P36888, N841I); cell-free assay: 74%
TNNI3K (Homo sapiens, UniProt Q59H18); cell-free assay: 70%
VRK2 (Homo sapiens, UniProt Q86Y07); cell-free assay: 74%

Study 3
Cell line: mouse MPNST tumor cells
Technique: high-content nuclear imaging
Item: cell number
Concentration: 10 µM
Time: 12 h
Setting: mean of 2 replicates
Relative to: plate mean
Reading: higher = more cells
Measurement: nuclei count
CC1(C)S[C@@H]2[C@H](NC(=O)[C@H](N)c3ccc(O)cc3)C(=O)N2[C@H]1C(=O)O: 2 z-score
Cc1cc(C)nc(NS(=O)(=O)c2ccc(NC(=S)NC(=O)COc3ccc(Br)cc3Cl)cc2)n1: 0.237 z-score
FC(F)(F)c1ccc(CNc2ccc(Cc3c[nH]c4ncccc34)cn2)cc1: 1.49 z-score

Study 4
Cell line: A-375
Concentration: 100 µM
Time: 36 h
Measurement: viability
CC1=C(C(=O)O)N2C(=O)[C@@H](NC(=O)[C@H](N)c3ccc(O)cc3)[C@H]2SC1: 104%
C=CC(=O)Nc1cccc(Nc2nc(Nc3ccc(N4CCN(C(C)=O)CC4)cc3OC)ncc2C(F)(F)F)c1: 11.8%
CC[C@]1(O)C[C@H]2CN(CCc3c([nH]c4ccccc34)[C@@](C(=O)OC)(c3cc4c(cc3OC)N(C=O)[C@H]3[C@@](O)(C(=O)OC)[C@H](OC(C)=O)[C@]5(CC)C=CCN6CC[C@]43[C@@H]65)C2)C1: 18.4%

Study 5
Host: mouse
Matrix: microsomes or S9
Concentration: 2 µM
Time: 0.5 h
Measurement: remaining compound
COc1ccc(OC)c(N2C(=O)c3cc4occc4n3CC2(C)C(=O)NC2CCCCCC2)c1 (centres unmarked): 0.302%
O=C1CC(c2ccc3c(c2)OCO3)c2c(n[nH]c2-c2ccccc2)N1 (centres unmarked): 47.2%
COc1cc2c(cc1NC(=O)C(C(C)=O)=C(SC)SC)oc1ccccc12: 6.57%

Study 6
Cell line: Huh-7
Concentration: 10 µM
Time: 24 h
Measurement: viability
CC(=O)OCC(=O)[C@@]1(O)CC[C@H]2[C@@H]3CCC4=CC(=O)CC[C@]4(C)[C@@]3(F)[C@@H](O)C[C@@]21C: 102%
NCCCCCC(=O)O: 101%
CC1CC(OC(=O)c2ccccc2O)CC(C)(C)C1 (centres unmarked): 101%

Mixed results
FKH1 DNA-binding domain: Fork head protein homolog 1, DNA-binding domain (FKH1, Saccharomyces cerevisiae, UniProt P40466, residues 243-484)
UniProt P40466, sequence (243-484, looked up): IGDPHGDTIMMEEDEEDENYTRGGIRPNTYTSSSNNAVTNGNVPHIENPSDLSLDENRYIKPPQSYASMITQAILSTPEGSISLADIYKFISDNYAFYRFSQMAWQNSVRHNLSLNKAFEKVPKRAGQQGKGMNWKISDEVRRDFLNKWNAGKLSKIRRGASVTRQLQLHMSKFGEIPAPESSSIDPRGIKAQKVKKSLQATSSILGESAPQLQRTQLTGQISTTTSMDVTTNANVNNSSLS
ATAAATA  relative binding free energy (FKH1 DNA-binding domain; SELEX-seq; double-stranded DNA, one strand shown, in vitro; not given, 7-bp core, flanks averaged; relative to: best-binding core, lower = stronger binding): 1.55 ddG/RT
CC(C)n1cnc(-c2ccc(F)cc2)c1-c1ncc(C(=O)Nc2ccc(N3CCN(C)CC3)cc2)[nH]1  patients with hepatic steatosis (human, idiopathic pulmonary fibrosis; 30 mg once daily, trial, treatment-emergent): 0%
CTAAACA  relative binding free energy (FKH1 DNA-binding domain; SELEX-seq; double-stranded DNA, one strand shown, in vitro; not given, 7-bp core, flanks averaged; relative to: best-binding core, lower = stronger binding): 1.55 ddG/RT
Nc1cc(C(F)(F)F)c(-c2cc(N3CCOCC3)nc(N3CCOCC3)n2)cn1  inhibition (AlphaScreen signal, AlphaScreen counter screen; His6 peptide without bromodomain; 50 µM, assay interference check): 24.1%
RAB1A (Homo sapiens, UniProt P62820)  interaction screen (RAB1C (Homo sapiens, UniProt Q92928); cross-linking MS; hits only): cross-linked
